Measurements gathered from unrelated publications.
Each line is one published result; not all experiments were run side by side. ± marks the error that the study gave.

Compound	assay	system	conditions	how to read	measurement	value
CC[C@H](C)[C@@H]1NC(=O)[C@H](CCCCN)NC(=O)[C@H](CCCCN)NC(=O)[C@H](Cc2ccc(O)cc2)NC(=O)[C@H](CC(C)C)NC(=O)[C@@H]2CCCN2C(=O)[C@H](C)NC(=O)CNC(=O)CNC(=O)[C@H](CO)NC(=O)CNC(=O)CNC(=O)[C@H](CO)NC(=O)[C@H](CCCCN)NC(=O)[C@H](CC(C)C)NC(=O)[C@H](CC(C)C)NC(=O)[C@H](CCCCN)NC(=O)[C@H](CCCNC(=N)N)NC(=O)[C@H]([C@@H](C)CC)NC(=O)[C@H]([C@@H](C)CC)NC(=O)[C@H](CCCCN)NC(=O)[C@H](CCCCN)NC(=O)[C@H](Cc2ccc(O)cc2)NC(=O)[C@H](CC(C)C)NC(=O)[C@@H]2CCCN2C(=O)CNC(=O)CNC(=O)[C@@H](NC(=O)CN)CSSC[C@@H](C(N)=O)NC(=O)[C@H](CC(C)C)NC(=O)[C@H](CCCCN)NC(=O)[C@H](CCCNC(=N)N)NC(=O)[C@H]([C@@H](C)CC)NC1=O	–	25% human serum	50 µM, 24 h	reference: 0 h control	remaining intact peptide	1.2 ± 0.1%
O=C(O)Cc1cccc(OC(=O)NCCCCCn2ccc3ccc(F)cc32)c1	–	porcine plasma	20 µM, 0.5 h, 37 °C	–	remaining parent compound	83 ± 5%
CC(C)C[C@@H]1NC(=O)[C@@H]2CCCN2C(=O)[C@H](Cc2c[nH]c3ccccc23)NC(=O)[C@@H]2CCCN2C(=O)[C@H](Cc2ccccc2)NC(=O)[C@H](CC(=O)O)NC(=O)[C@H](C)NC(=O)[C@@H]2CSSC[C@H](NC(=O)[C@H](CCC(N)=O)NC(=O)[C@H](Cc3c[nH]cn3)NC(=O)CNC1=O)C(=O)N[C@@H](Cc1ccccc1)C(=O)N1CCC[C@H]1C(=O)N[C@@H](CC(=O)O)C(=O)NCC(=O)N[C@@H](Cc1ccccc1)C(=O)N[C@H]1CSSC[C@H](NC(=O)[C@H](CO)NC(=O)[C@H](Cc3c[nH]cn3)NC(=O)[C@H](Cc3c[nH]cn3)NC(=O)[C@H](Cc3c[nH]c4ccccc34)NC1=O)C(=O)N[C@@H](C(C)C)C(=O)N1CCC[C@H]1C(=O)N[C@@H](CO)C(=O)NCC(=O)N[C@@H]([C@@H](C)O)C(=O)N2	RP-HPLC	simulated gastric fluid with pepsin	24 h, pH 1.2, 37 °C	–	remaining intact	> 50%
Cc1nnc(-c2ccc(CC(=O)NCCCC[C@H](NC(=O)c3ccc(OCc4ccc(B(O)O)cc4)c(-c4nc5ccccc5c(=O)[nH]4)c3)C(=O)NCC(=O)NCC(=O)NCC(=O)N[C@@H](Cc3ccccc3)C(=O)N[C@@H](Cc3ccccc3)C(=O)O)cc2)nn1	–	human serum	100 µM, 4 h, 37 °C	–	remaining intact compound	~72%
CC[C@H](C)[C@H](NC(=O)[C@H](CC(N)=O)NC(=O)[C@@H]1CCCN1C(=O)[C@H](CO)NC(=O)[C@H](CC(N)=O)NC(=O)[C@@H](N)CCC(N)=O)C(=O)N[C@@H](Cc1ccccc1)C(=O)NCC(=O)N[C@@H](CCC(N)=O)C(=O)N[C@@H](Cc1c[nH]c2ccccc12)C(=O)N[C@@H](CCSC)C(=O)O	–	PBS	24 h, pH 7.2, 37 °C	–	remaining peptide	~70%
CC[C@H](C)[C@@H]1NC(=O)[C@H](CCCCN)NC(=O)[C@H](CCCCN)NC(=O)[C@H](Cc2ccc(O)cc2)NC(=O)[C@H](CC(C)C)NC(=O)[C@@H]2CCCN2C(=O)[C@H](C)NC(=O)CNC(=O)CNC(=O)[C@H](CO)NC(=O)CNC(=O)CNC(=O)[C@H](CO)NC(=O)[C@H](CCC(=O)O)NC(=O)[C@H](CC(C)C)NC(=O)[C@H](CC(C)C)NC(=O)[C@H](CCCCN)NC(=O)[C@H](CCCCN)NC(=O)[C@H]([C@@H](C)CC)NC(=O)[C@H]([C@@H](C)CC)NC(=O)[C@H](CCCCN)NC(=O)[C@H](CCCCN)NC(=O)[C@H](Cc2ccc(O)cc2)NC(=O)[C@H](CC(C)C)NC(=O)[C@@H]2CCCN2C(=O)[C@H](C)NC(=O)CNC(=O)[C@@H]2CSSC[C@H](NC(=O)[C@H](CC(C)C)NC(=O)[C@H](CCCCN)NC(=O)[C@H](CCCCN)NC(=O)[C@H]([C@@H](C)CC)NC1=O)C(=O)N[C@@H](CCCCN)C(=O)N[C@@H](CC(N)=O)C(=O)NCC(=O)N2	–	25% human serum	50 µM, 24 h	reference: 0 h control	remaining intact peptide	40.5 ± 4.3%
CC[C@H](C)[C@H](NC(=O)[C@@H](Cc1c[nH]c2ccccc12)NC(=O)[C@@H]1CCCN1C(=O)[C@H](CCCCN)NC(=O)[C@H](CCCCN)NC(=O)CCNC(=O)CCNC(=O)CN1CCN(CC(=O)O)CCN(CC(=O)O)CCN(CC(=O)O)CC1)C(=O)N[C@@H](C[Si](C)(C)C)C(=O)O [gallium-68 labelled]	–	human blood plasma	15 min	–	remaining intact peptide	23.5%
CC[C@H](C)[C@@H]1NC(=O)[C@H](CCCCN)NC(=O)[C@H](CCCCN)NC(=O)[C@H](Cc2ccc(O)cc2)NC(=O)[C@H](CC(C)C)NC(=O)[C@@H]2CCCN2C(=O)CNC(=O)CNC(=O)[C@@H](N)CSSC[C@@H](C(=O)N[C@@H](CCC(=O)O)C(=O)N[C@@H](CO)C(N)=O)NC(=O)[C@H](CC(C)C)NC(=O)[C@H](CCCCN)NC(=O)[C@H](CCCCN)NC(=O)[C@H]([C@@H](C)CC)NC(=O)[C@H]([C@@H](C)CC)NC(=O)[C@H](CCCCN)NC(=O)[C@H](CCCCN)NC(=O)[C@H](Cc2ccc(O)cc2)NC(=O)[C@H](CC(C)C)NC(=O)[C@@H]2CCCN2C(=O)[C@H](C)NC(=O)CNC(=O)CNC(=O)[C@H](CO)NC(=O)CNC(=O)CNC(=O)[C@H](CO)NC(=O)[C@H](CCC(=O)O)NC(=O)[C@H](CC(C)C)NC(=O)[C@H](CC(C)C)NC(=O)[C@H](CCCCN)NC(=O)[C@H](CCCCN)NC(=O)[C@H]([C@@H](C)CC)NC1=O	–	25% human serum	50 µM, 24 h	reference: 0 h control	remaining intact peptide	65.4 ± 3.4%
CC[C@H](C)[C@H](N)C(=O)N[C@@H](CC(N)=O)C(=O)N[C@H]1CNC(=O)[C@H](CC(C)C)NC(=O)[C@H](CC(C)C)NC(=O)[C@H](Cc2ccccc2)NC(=O)[C@H](C)NC1=O	HPLC	ammonium carbonate	72 h, pH 8.0, 37 °C	–	remaining intact peptide	> 60%
O=C(NCCCCCn1ccc2ccc(F)cc21)Oc1ccccc1F	–	porcine liver S9 fraction without NADPH	20 µM, 0.5 h, 37 °C	–	remaining parent compound	76 ± 2%

A few entries again:
Compound	assay	system	conditions	how to read	measurement	value
CC(C)C[C@@H]1NC(=O)[C@@H]2CCCN2C(=O)[C@H](Cc2c[nH]c3ccccc23)NC(=O)[C@@H]2CCCN2C(=O)[C@H](Cc2ccccc2)NC(=O)[C@H](CC(=O)O)NC(=O)[C@H](C)NC(=O)[C@@H]2CSSC[C@H](NC(=O)[C@H](CCC(N)=O)NC(=O)[C@H](Cc3c[nH]cn3)NC(=O)CNC1=O)C(=O)N[C@@H](Cc1ccccc1)C(=O)N1CCC[C@H]1C(=O)N[C@@H](CC(=O)O)C(=O)NCC(=O)N[C@@H](Cc1ccccc1)C(=O)N[C@H]1CSSC[C@H](NC(=O)[C@H](CO)NC(=O)[C@H](Cc3c[nH]cn3)NC(=O)[C@H](Cc3c[nH]cn3)NC(=O)[C@H](Cc3c[nH]c4ccccc34)NC1=O)C(=O)N[C@@H](C(C)C)C(=O)N1CCC[C@H]1C(=O)N[C@@H](CO)C(=O)NCC(=O)N[C@@H]([C@@H](C)O)C(=O)N2	RP-HPLC	simulated gastric fluid with pepsin	24 h, pH 1.2, 37 °C	–	remaining intact	> 50%
